Measurements from different studies.
Every numbered part comes from another study and shows a few of its results, in no order. Changes are numbered by the printed parent chain.

Block 1
Target: Interferon regulatory factor 5, full length, phosphomimetic (IRF5, Homo sapiens, UniProt Q13568-2, residues 1-514, S451D/S453D/S456D/S462D)
Technique: protein-binding microarray
Form: double-stranded DNA, one strand shown
Sample: in vitro
Tested at: 940 nM top
Setting: 60-bp whole probe
Added: salmon DNA 0.4 mg/ml
Baseline: random background probes
Direction: higher = stronger binding
All sequences stand within: GCCTAGCAC … GTCTTGATTCGCTTGACGCTGCTG
For `CTAATATTGAGACTCATGGGGTGCTAG`, “fitted relative affinity” read 0.0989 z-score.
`GACTGACTGGGGTATCGGGACGTGCTA` — result for “fitted relative affinity”: 0.58 z-score.
Under “fitted relative affinity”, `TTAGGTTTCCGGACTGGGTTAGTGCTA` is recorded as 0.718 z-score.
For `TTAGGACTGGGTCTCGTTTAGTGCTAG`, “fitted relative affinity” read 0.42 z-score.
For `TTAGGTGTCGGGTATCGGTTAGTGCTA`, “fitted relative affinity” read 3.02 z-score.
For `CACGAACTGGGGTTTCGAGACGTGCTA`, “fitted relative affinity” read 1.77 z-score.
Under “fitted relative affinity”, `TTAGATCTCAGTAGCGATTAGTGCTAG` is recorded as 0.323 z-score.
`TTAGGTATCCTTATACTTTAGTGCTAG` — result for “fitted relative affinity”: 0.472 z-score.
`GACGATATCGAGACTGGAGACGTGCTA`: “fitted relative affinity” 0.443 z-score.
Under “fitted relative affinity”, `TCAATTCTGAATTCGAAACTGTGCTAG` is recorded as 0.235 z-score.
Under “fitted relative affinity”, `TTAGGACTTGACTTTCGGTTAGTGCTA` is recorded as 3.06 z-score.
`TTAGATATCGGGACTGTATTAGTGCTA`: “fitted relative affinity” 0.196 z-score.
For `TCAAAATTAGTGTTTGCCACTGTGCTA`, “fitted relative affinity” read -0.322 z-score.
Under “fitted relative affinity”, `TCAGTTTTTCATTTTGTACTGTGCTAG` is recorded as 1.33 z-score.
Under “fitted relative affinity”, `TTAAGTATCCTACTGCTTTAGTGCTAG` is recorded as 0.0841 z-score.
`GACGACCTGAGACTGGAGACGTGCTAG`: “fitted relative affinity” -0.437 z-score.
`TCAGGTTTCACTTTCCAACTGTGCTAG` — result for “fitted relative affinity”: 7.82 z-score.
Under “fitted relative affinity”, `TTAGCACTGGACTTTCGGTTAGTGCTA` is recorded as 2.58 z-score.
For `GACAATTTCAGTCTCGAGACGTGCTAG`, “fitted relative affinity” read 2.27 z-score.
`GACGATCTCATTATCGAGACGTGCTAG`: “fitted relative affinity” 0.557 z-score.
`TTAGGTCTCCTACTGCTATAGTGCTAG`: “fitted relative affinity” 0.227 z-score.

Block 2
Target: RING finger protein unkempt homolog, zinc fingers 1-6, GST-SBP tag (UNK, Homo sapiens, UniProt Q9C0B0, residues 30-357)
Technique: RNA Bind-n-Seq
Form: RNA
Sample: in vitro
Tested at: not given
Setting: RNA with constant flanks, human and mouse sites, ends assumed
Baseline: input RNA pool
Direction: higher = stronger binding
Construct (chain): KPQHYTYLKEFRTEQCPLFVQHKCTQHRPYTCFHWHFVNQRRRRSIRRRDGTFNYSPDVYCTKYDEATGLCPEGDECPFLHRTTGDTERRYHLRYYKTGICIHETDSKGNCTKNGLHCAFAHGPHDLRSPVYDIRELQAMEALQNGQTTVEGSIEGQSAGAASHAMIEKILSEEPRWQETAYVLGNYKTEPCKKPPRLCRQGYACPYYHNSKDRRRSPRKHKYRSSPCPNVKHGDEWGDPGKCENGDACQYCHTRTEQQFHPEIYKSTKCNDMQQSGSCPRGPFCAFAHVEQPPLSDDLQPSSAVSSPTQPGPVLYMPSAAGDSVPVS
`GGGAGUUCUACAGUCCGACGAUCGUUCCGGCUCUUGAUGUUUUUAAUUUUUUUAAGAAAAAUGAUUACGUACAUAAAAGUCCAGAUUUAAAUACAUUUACUAUCUCAUUUCAAAAAUGAUUUUAAUAAUCCAUUUCUUAAAACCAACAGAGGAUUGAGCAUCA` has a bound/input enrichment of 0.403 ratio.
`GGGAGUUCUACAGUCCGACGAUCUUAGGUUGGAUGCAUCACACUGUAGAUCUCCUGGGAGAUAAAGCCACCAAGGAAAGCUAUGCUAUUCAGUAUCUCCAAAAGUCCUUGGAAGCAGAUCCUAAUUCUGGCCAGUCCUGGUAUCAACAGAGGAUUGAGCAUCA` has a bound/input enrichment of 0.153 ratio.
With `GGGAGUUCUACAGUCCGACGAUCAGUUUUUCUGCUUCCAAAAUUUUUAUUUCUGCAUUAGCUAUGGAUGGACAACAACUUUUAGUGGCAUAUCCCUGUGCUUUGUUGUAUGGAGUCUUUGCCCUGAUUUCUGUCUUCUGAACUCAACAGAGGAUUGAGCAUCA` the bound/input enrichment was 0.24 ratio.
For `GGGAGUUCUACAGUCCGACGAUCAGUUAGAAAUUAAGUCUACUGAAAAAUUUACAUUUUGAGUCAGGUUUUGUGUCAGUACUUUAGCAGUUUUUGAGAAUGUGUUUGAUAUCACAGUGUUUGUAAAUUCUAUGAAAAAUGCAUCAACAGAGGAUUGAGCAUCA`, the bound/input enrichment was 2.66 ratio.
For `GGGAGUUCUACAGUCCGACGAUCCACACCCUCUUCUGUGGCACCCUCAUUCUGCAGGCCCGAGCCUACGUGGGACCCCGUGUGCUAGCAGUGGUGACUCGGACAGGGUUCUGCACAGCCAAAGGGGGCCUGGUGAGCUCCAUCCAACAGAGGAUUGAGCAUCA`, the bound/input enrichment was 0.0736 ratio.
For `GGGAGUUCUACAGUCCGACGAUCAUUUUGCUGUGUGGUGUGGCUGCCUUUGGUAGGGAGGUUUCCAUGGAUGUAGCCAGCGUGUAGCUAUUGUGUGUGGGGCAGCAUCCAGCCUGGAGUUGCCAGUGUCUCUAGCAAGCAAUACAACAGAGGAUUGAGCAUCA`, the bound/input enrichment was 0.324 ratio.
`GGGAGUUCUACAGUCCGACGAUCCAGAACCUACCUUCUGGAUCAUCACGUGUUGGAGCCAUUAAGCUUACCUACAUUUCAAAGGUUAGCGAUGCUACUAAGCUAAGGCCAAAGGCGGAGUUCUGUUUUGUUAUGAAUGCAGGACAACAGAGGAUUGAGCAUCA` gave a bound/input enrichment of 0.0747 ratio.
For `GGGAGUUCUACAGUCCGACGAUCUUUGUUGCUGCUGUGUUUAGAUAAUUGAAGAGAUCUUUGUGCCACACAGGAUUUUUUUUUUUUUUUAAGAAAAACCUAUAGAUGAAAAAUUACUAAUGAAACUGUGUGUACGUGUCUGUGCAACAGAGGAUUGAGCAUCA`, the bound/input enrichment was 12.5 ratio.
The bound/input enrichment of `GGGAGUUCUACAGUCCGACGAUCUCUUUGGCUUUUUCUCGGCACGUGGUGUCUCCACCAUUUCUUCUGCACAAAGACGUCUUCUGUUCACCCUGAACAUUUUAAAAUGCAGAAUUUUAUGUGACUGCUUUUUUGCCUCACAAUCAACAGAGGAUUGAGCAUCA` is reported as 0.144 ratio.
With `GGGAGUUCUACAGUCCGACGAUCCUGAGCAAGAUGUACCCGCAGACCAGACACCCAGCACCGCAUCAGCCUGCUCAACCCUUUAAAUUUACAAUUUCCGAAUCCUGUGAUCGGAUUAAGGAAGAGUUUCAGUUUUUACAGGCUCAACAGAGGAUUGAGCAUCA` the bound/input enrichment was 0.353 ratio.
With `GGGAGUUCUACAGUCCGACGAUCAAAAAUGGAGACAAACAAGAUCUUUGAUGUGUUUCAUGUUUGUGGGCAGGUGAACAAUAUUUUAGAGUAUUUUAAAAAAUCAUUUCUUACAGAGAAAUUAAUUUGCAGUUGAAUGAAAGCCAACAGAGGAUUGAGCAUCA` the bound/input enrichment was 18.3 ratio.

Block 3
Target: ABI1, truncated, D143A, DHFR fusion (Arabidopsis thaliana)
Technique: DHFR PCA, deep sequencing
Sample: yeast
Setting: methotrexate growth selection, single substitutions
Added: (+)-ABA 0.11 µM
Baseline: wild-type fitted maximum
Direction: higher = stronger binding
Starting sequence: PYL1, truncated, DHFR fusion (Arabidopsis thaliana); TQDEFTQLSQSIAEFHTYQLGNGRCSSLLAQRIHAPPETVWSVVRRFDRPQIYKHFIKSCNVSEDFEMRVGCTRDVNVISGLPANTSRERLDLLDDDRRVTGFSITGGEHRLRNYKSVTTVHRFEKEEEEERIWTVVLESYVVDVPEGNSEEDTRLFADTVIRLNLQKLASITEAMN; partner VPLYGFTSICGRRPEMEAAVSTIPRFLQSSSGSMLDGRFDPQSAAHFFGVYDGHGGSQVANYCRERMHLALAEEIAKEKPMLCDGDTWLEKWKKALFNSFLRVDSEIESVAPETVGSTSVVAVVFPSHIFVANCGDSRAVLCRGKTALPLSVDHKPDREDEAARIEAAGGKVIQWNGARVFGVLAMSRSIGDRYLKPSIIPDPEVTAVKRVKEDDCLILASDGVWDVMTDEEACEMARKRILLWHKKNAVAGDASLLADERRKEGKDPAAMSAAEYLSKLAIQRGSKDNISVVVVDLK
Under “relative binding score”, `K54N` is recorded as 3.05%.
`R155A` — result for “relative binding score”: -5.6%.
`Y115H`: “relative binding score” 11.3%.
`Q167W` — result for “relative binding score”: 12.8%.
`E147D` — result for “relative binding score”: 37.5%.
Under “relative binding score”, `S63L` is recorded as 5.95%.
`E127L`: “relative binding score” 33.5%.
For `P146M`, “relative binding score” read 23.7%.
Under “relative binding score”, `S63Q` is recorded as 22.6%.
For `I52V`, “relative binding score” read 53.6%.
Under “relative binding score”, `E125L` is recorded as 19.4%.
`V100H` — result for “relative binding score”: -9.17%.
Under “relative binding score”, `W41M` is recorded as -5.69%.
For `Q19S`, “relative binding score” read 36.6%.
For `S140N`, “relative binding score” read -6.37%.
`D48S`: “relative binding score” 1.07%.
Under “relative binding score”, `W41R` is recorded as 4.74%.
For `V118T`, “relative binding score” read 31.3%.
`E152Q`: “relative binding score” 21.1%.
`M176P` — result for “relative binding score”: 14.7%.

Block 4
Target: CCNE1, cyclin fold, Cln2 fusion (human)
Technique: yeast growth competition, sequencing
Sample: yeast
Setting: weak parent motif
Baseline: not given
Direction: higher = stronger binding
Starting sequence: ORC1 docking peptide (human); PRARKRLELGNLG
`PRARKRLELNNLG [G10N]`: “normalised enrichment score” -0.266.
Under “normalised enrichment score”, `PSARKRLELGNLG [R2S]` is recorded as 0.0602.
Under “normalised enrichment score”, `YRARKRLELGNLG [P1Y]` is recorded as -0.0972.
`PRCRKRLELGNLG [A3C]` — result for “normalised enrichment score”: 0.925.
Under “normalised enrichment score”, `PRARKQLELGNLG [R6Q]` is recorded as 0.522.
`PRGRKRLELGNLG [A3G]` — result for “normalised enrichment score”: -0.595.
Under “normalised enrichment score”, `PRARKREELGNLG [L7E]` is recorded as 0.338.
Under “normalised enrichment score”, `PRARKRLSLGNLG [E8S]` is recorded as 0.41.
`PRARKRLELGQLG [N11Q]` — result for “normalised enrichment score”: -0.893.
Under “normalised enrichment score”, `NRARKRLELGNLG [P1N]` is recorded as 1.24.
For `PRARTRLELGNLG [K5T]`, “normalised enrichment score” read 0.33.
For `PRARKRLELGNLY [G13Y]`, “normalised enrichment score” read -0.236.
For `PEARKRLELGNLG [R2E]`, “normalised enrichment score” read 1.21.
For `PRRRKRLELGNLG [A3R]`, “normalised enrichment score” read -0.191.
`PRIRKRLELGNLG [A3I]`: “normalised enrichment score” -0.631.
Under “normalised enrichment score”, `PRARSRLELGNLG [K5S]` is recorded as 0.202.
Under “normalised enrichment score”, `PRARKRLELGMLG [N11M]` is recorded as 1.32.
Under “normalised enrichment score”, `PMARKRLELGNLG [R2M]` is recorded as 0.56.
`PRARKRLELGELG [N11E]`: “normalised enrichment score” -0.0365.
Under “normalised enrichment score”, `PRARKRLELGNLW [G13W]` is recorded as 0.0339.
For `PRARKRLELENLG [G10E]`, “normalised enrichment score” read 0.208.

Excerpt of the above (block 3):
`Y115H`: “relative binding score” 11.3%.
`E127L`: “relative binding score” 33.5%.
Under “relative binding score”, `S63L` is recorded as 5.95%.
For `V118T`, “relative binding score” read 31.3%.
`R155A` — result for “relative binding score”: -5.6%.
Under “relative binding score”, `W41M` is recorded as -5.69%.
Under “relative binding score”, `E125L` is recorded as 19.4%.
